Results gathered from unrelated publications.
Protocols differ between the studies behind these lines.
Organism: Mycobacterium tuberculosis

| SMILES | assay | test system | setting | measurement | result |
| --- | --- | --- | --- | --- | --- |
| CO[C@H]1/C=C/O[C@@]2(C)Oc3c(C)c(O)c4c(O)c(c(/C=N/N5CCN(C)CC5)c(O)c4c3C2=O)NC(=O)/C(C)=C\C=C\[C@H](C)[C@H](O)[C@@H](C)[C@@H](O)[C@@H](C)[C@H](OC(C)=O)[C@@H]1C | intracellular bacterial growth | J774.1 mouse macrophages, mc^26206 |  | IC50 | 0.13 µM |
| O=[N+]([O-])c1cc(C(F)(F)F)ccc1NCCc1c[nH]c2ccc(O)cc12 | bacterial growth | infected macrophages, H37Rv | 3 days | IC90 | 9.3 µM |
| COc1cc(C)cc(-c2ccc(C(=O)NCc3c4c(c(C)[nH]c3=O)CCCC4)cc2)c1 | microbial growth, resazurin | H37RV | 25 µg/mL | inhibition | 93.7% |
| C/C=C/C[C@@H]1NC(=O)[C@H](CC(C)C)N2C(=O)[C@H](C[C@@H](C)[C@H]2OCCCC)N(C)C(=O)[C@H](C)NC(=O)[C@H](Cc2ccc(O)c([N+](=O)[O-])c2)NC(=O)[C@H](CC(C)C)N(C)C(=O)[C@H](Cc2cn(C(C)(C)C(O)CCl)c3ccccc23)NC1=O (stereo partly drawn) | microbial growth, resazurin |  |  | MIC90 | 4.3 µM |
| Cc1[nH]c(=O)c(CNC(=O)c2ccc([N+](=O)[O-])cc2)c2c1CCCC2 | microbial growth, resazurin | H37RV | 25 µg/mL | inhibition | 12.6% |
| CCN(CC)C(=O)C[C@H](NC(=O)CCc1ccccc1)C(=O)N[C@@H](Cc1ccc(F)cc1)C(=O)NCc1cccc2ccccc12 | non-replicating bacteria | H37Rv | above twice Ki, 11 days, pH 5.5, with: 0.5 mM NaNO2 | killing | ≤ 2.2 log10 CFU |
| O=[N+]([O-])c1ccc(/C=N/Nc2nc(Nc3ccccc3)nc(N3CCOCC3)n2)o1 | intracellular bacterial growth | J774.1 mouse macrophages, mc^26206 |  | IC50 | 1.3 µM |
| COc1ccc2c(ccc3oc([N+](=O)[O-])cc32)c1 |  | H37Rv |  | MIC90 | 0.031 to 0.5 µg/mL |
| COc1ccc(C(=O)NCc2c3c(c(C)[nH]c2=O)CCCC3)cc1 | microbial growth, resazurin | H37RV | 25 µg/mL | inhibition | 13.3% |
| N#Cc1ccc2c(ccc3oc([N+](=O)[O-])cc32)c1 |  | H37Rv |  | MIC90 | 0.031 to 0.5 µg/mL |
| COc1ccc(NC(=O)c2nc(S(C)(=O)=O)ncc2Cl)cc1Cl | growth inhibition |  | 144 h, pH 7.0 | EC50 | > 30 µM |
| COc1cc(OC)cc(Oc2ccc(C(=O)NCc3c4c(c(C)[nH]c3=O)CCCC4)cc2)c1 | microbial growth, resazurin | H37RV | 25 µg/mL | inhibition | 64.3% |
| COc1cc2ccc3oc([N+](=O)[O-])cc3c2cc1OC |  | H37Rv |  | MIC90 | 0.031 to 0.5 µg/mL |
| COc1cccc(-c2ccc(C(=O)NCc3c4c(c(C)[nH]c3=O)CCCC4)cc2)c1 | microbial growth, resazurin | H37RV | 25 µg/mL | inhibition | 43.6% |
| O=C(C1CCCCC1)N1CCN(S(=O)(=O)c2cccc3cnccc23)CC1 |  | guaB2-guaB3 Tet-OFF attB::guaB3 | with: anhydrotetracycline | MIC90 | 0.07 µM |
